Measurements from different studies.
Numbered parts are unrelated; each lists some results of a single study. Substitutions count along the parent as printed.

Series 1
Target: RING finger protein unkempt homolog, zinc fingers 1-6, GST-SBP tag (UNK, Homo sapiens, UniProt Q9C0B0, residues 30-357)
UniProt Q9C0B0, sequence (30-357, looked up): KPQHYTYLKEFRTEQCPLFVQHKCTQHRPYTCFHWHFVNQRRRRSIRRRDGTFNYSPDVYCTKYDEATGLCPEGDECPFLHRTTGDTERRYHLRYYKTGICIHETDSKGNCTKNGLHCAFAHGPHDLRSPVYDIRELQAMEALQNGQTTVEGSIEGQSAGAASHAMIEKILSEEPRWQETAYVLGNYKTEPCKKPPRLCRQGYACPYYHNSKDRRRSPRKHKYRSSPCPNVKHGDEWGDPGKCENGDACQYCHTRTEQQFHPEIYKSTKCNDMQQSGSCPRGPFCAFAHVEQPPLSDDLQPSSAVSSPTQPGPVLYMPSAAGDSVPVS
Technique: RNA Bind-n-Seq
Form: RNA
Matrix: in vitro
Tested at: not given
Notes: RNA with constant flanks, human-mouse chimeric sites, ends assumed
Relative to: input RNA pool
Reading: higher = stronger binding
Measurement: bound/input enrichment
All sequences stand within: GGGAGUUCUACAGUCCGACGAUC … CAACAGAGGAUUGAGCAUCA
Strand = CGGAGCCCUCCUCUCCCACAGGCCCAAGAUAUAACCCACCAGUGCCUUUUGUCUUCCUGUCAGCUCUAAUCAAUCAUCCUGUCCUCUCACGCCCACACUCCCCAGCCAAAGUGGGGAGGG; result = 0.461 ratio
Strand = GCUCCUCCCCGCUCUGCAGCCUGGGGACACUGGGCUGGGACCAGAAUCUUAUUUUUUUUUAAAACUCUCAGUGUAACUGUAUCCCGUGACAUUUCAUUUUUUUUUUAUAGUGUAUUUUUU; result = 42.6 ratio
Strand = GACUUGGGACCGUCCUGGGCUAGUACAAAUAGCGGCAGUGGAGGCUCGAGAGGAAAGUUUGUUAGUGAGGCAGUGGUUAGAGGCCGUCAUGUACGGUCCUUUACUCGAUAGAUGUGUUCU; result = 0.825 ratio
Strand = CUUAAUGUUAAUAUUUUUGAAUAAAUGAAGCUAAAAUGUCUGCUUUUGGUACAACACGCAUUAAUAAAAGGUUAAGUUUUGUUUUCCCUCCACUGAAUAUUUAACAUCUCAGAAAAAAAC; result = 0.436 ratio
Strand = UGUAGUUUCGCGGUUCAGGCUUUGUGUGUAGUUCACUUACGGUAUUAAAUUAUUAUUCUGCUUAGCUUAUAAUAAGGAUAAUUGCAUUUAAAGAGGUUACUGAAUGUUACUCUGAAACUU; result = 0.552 ratio
Strand = CAUGUAUCUGCAGUACUUGAUGUGGACUACUCUCCCACUGGGAAGGAAUUUGUGUCUGCCAGCUUUGAUAAGUCUAUUAGAAUCUUUCCUGUGGACAAGAGCCGAAGCAGGGAGGUAUAU; result = 0.471 ratio
Strand = CACACACUCUUCUGUGGGACCCUCAUCUUGCAGGCCCGGGCCUAUGUGGGACCGCACGUCCUGGCAGUGGUGACUCGCACAGGGUUCUGCACGGCAAAAGGGGGCCUGGUGAGCUCCAUC; result = 0.156 ratio
Strand = AAAGAGAAACUAAAGCAACUAAUAGAGAAGAGGAUUGGGCAAAGAGAAUUUCAUAGAAAACUAGGAUUUAUUAGCAAACAUGAGUUAUAUUCCAGAGCGUCUCAGAAACCCCAGCCAAAC; result = 20.3 ratio
Strand = GCCACCAAUUCCAGCCAACAUGACCCUUGCAGCCUAUAAAGAGAAGAUGAAGGAGCUCCCGCUGGUGUCCUUGUUCUGCUCCUGCUUCCUGGCCGAUCCCCUGAAUAAGUCGUCCUACAA; result = 0.337 ratio
Strand = CUGGCACUCUAUCAGAUAGAUUACUUUUUUAAUGUAGAUGUAAUUUUAAAAAUGAAUGGCUACUUUACACGUUUAACUAGGGUUUUACUAUAUAUGUGUGUGUAUAUAUAUAUAUAUAUA; result = 31.4 ratio
Strand = CGCUGGCCCAAGCUGAUGGACUCUGAUCUUGAUCUCUUCUCAGGCACGUGUGCCUUCUCUUAGUCCCUGUUUUCGGGAUGUUAUGAAUCUCAGUACUGUGGUUUGAAAGCACCAGCUUUG; result = 0.171 ratio

Series 2
Target: Centromere-binding protein 1, full length, His-tagged (CBF1, Saccharomyces cerevisiae, UniProt P17106, residues 1-351)
UniProt P17106, sequence (whole entry, looked up): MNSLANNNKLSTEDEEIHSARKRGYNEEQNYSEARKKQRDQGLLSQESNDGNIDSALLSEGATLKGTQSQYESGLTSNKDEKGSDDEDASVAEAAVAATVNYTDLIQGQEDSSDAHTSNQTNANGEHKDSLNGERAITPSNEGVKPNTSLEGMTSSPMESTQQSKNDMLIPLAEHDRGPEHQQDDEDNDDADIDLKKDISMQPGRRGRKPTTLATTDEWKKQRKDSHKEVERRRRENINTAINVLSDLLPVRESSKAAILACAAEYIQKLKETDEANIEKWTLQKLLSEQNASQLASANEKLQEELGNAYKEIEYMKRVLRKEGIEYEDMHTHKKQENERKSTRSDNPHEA
Technique: competition protein-binding microarray
Form: double-stranded DNA, one strand shown
Matrix: in vitro
Tested at: 2 µM
Notes: whole 60-bp probe, lowest competitor level
Together with: Pho4 competitor, 0.05 µM
Reading: higher = stronger binding
Measurement: fluorescence intensity
All sequences stand within: … GTCTTGATTCGCTTGACGCTGCTG
Strand = GGTAAGAAAAACCGACGCGTGGCCGACATCGAGTAG; result = 78.4 a.u.
Strand = ATTTGAACACCCCGTCACCTGAGTTAGGTAATTCAT; result = 137 a.u.
Strand = AAATTACTAAGTTGTATGGTGGGTGACGCCGTATGA; result = 63.7 a.u.
Strand = GCCATCTGTAATCAACATGTGAACTGAATGAAGCCG; result = 223 a.u.
Strand = AAATGGGCAGAATGCCACATGTTAGCAATGCAACGA; result = 108 a.u.
Strand = GAAGTAACTTGATACGTCGTGGGTAAATGGGTCTGT; result = 82.9 a.u.
Strand = TGCGCAACAACTTGGCTTGTGGGTGTATGTCTAGAA; result = 57.8 a.u.
Strand = CTTCTGTAAATTTGTTTCGTGGGTGGACGCGCCCCG; result = 79.6 a.u.
Strand = ATTTCTTCTGTTTCACACGTTGTGCTTGCCAGGAAT; result = 107 a.u.
Strand = AACTGTACCGGCTGGCACGTCGTACACAGAATCAGA; result = 60.7 a.u.
Strand = AATCGCTATCACTTACATGTGATATCATTTCTGTAC; result = 653 a.u.
Strand = AAAGACCTGTCGAGTCACGTTCGTTCAACTGTAGTG; result = 356 a.u.
Strand = CATACCCAACCTTGGATTGTGGGTGAAGATATTTGT; result = 68.2 a.u.

Series 3
Target: CCNE2, cyclin fold, Cln2 fusion (human)
Technique: yeast growth competition, sequencing
Matrix: yeast
Notes: strong parent motif
Relative to: not given
Reading: higher = stronger binding
Measurement: normalised enrichment score
Parent: WEE1 docking peptide (human); HKTFRKLRLFDTP
Substitution = H1E; result = 0.736
Substitution = R8I; result = 1.4
Substitution = D11M; result = 0.944
Substitution = F10K; result = 0.152
Substitution = T3I; result = 1.09
Substitution = F10D; result = 0.658
Substitution = P13F; result = 0.56
Substitution = L7Q; result = 1
Substitution = R8D; result = 0.0765
Substitution = K2V; result = 0.436
Substitution = R8P; result = 0.163
Substitution = D11I; result = 0.471
Substitution = K2M; result = 0.0669
Substitution = H1R; result = 0.6
Substitution = L7F; result = 1.08
Substitution = T3N; result = -0.174
Substitution = F10E; result = 0.0647
Substitution = F10M; result = 0.174
Substitution = F10I; result = 0.946
Substitution = R5A; result = -0.496
Substitution = K2P; result = 0.498
Substitution = D11Q; result = 2.34
Substitution = F10R; result = 1.25
Substitution = R5Q; result = 0.368

Series 4
Target: Histone acetyltransferase KAT6A, winged helix 1, GST fusion (KAT6A, Homo sapiens, UniProt Q92794, residues 1-85)
Technique: protein binding microarray
Form: double-stranded DNA, one strand shown
Matrix: in vitro
Tested at: not given
Notes: 8-mer, flanks averaged, mean of 2 arrays, mostly near background
Relative to: not given
Reading: higher = stronger binding
Measurement: E-score
Residues (chain): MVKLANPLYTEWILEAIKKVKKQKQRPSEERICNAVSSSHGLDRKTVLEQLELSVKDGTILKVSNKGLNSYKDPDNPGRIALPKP
Strand = CTGGTCGA; result = -0.155
Strand = AATGGAGG; result = -0.0202
Strand = CCCGCGTA; result = 0.343
Strand = CACTAGCA; result = -0.107
Strand = ACGACGCC; result = 0.321
Strand = ACTACATA; result = -0.284
Strand = CAGGAGCA; result = -0.176
Strand = ATTGCATA; result = -0.107
Strand = GTAGTCGA; result = -0.125
Strand = GGTTCTGA; result = 0.0293
Strand = AAGCGGAT; result = 0.124
Strand = GACGATAC; result = 0.0334
Strand = ACAATTCA; result = -0.167
Strand = CGGGCTAA; result = 0.27
Strand = CCCTCGTC; result = -0.0276
Strand = ACAGGGAC; result = 0.0577
Strand = CTCTCCGA; result = 0.14
Strand = CAAGCCTA; result = -0.139
Strand = CCTTCTAA; result = -0.28
Strand = GCACTGAA; result = -0.0118
Strand = GGTCACGA; result = -0.134
Strand = GCTAAACC; result = 0.0629
Strand = ACTAACTC; result = -0.195
Strand = GAAAATTC; result = 0.0891

Series 5
Target: Fragile X messenger ribonucleoprotein 1, C-terminal low-complexity region (Fmr1, Mus musculus, UniProt P35922)
Technique: RNA Bind-n-Seq
Form: RNA
Matrix: in vitro
Tested at: 200 nM
Notes: whole 134-nt RNA, ends assumed
Together with: 150 mM KCl
Relative to: input library
Reading: higher = stronger binding
Measurement: log2 enrichment
All sequences stand within: GGGAGUUCUACAGUCCGACGAUC … UGGAAUUCUCGGGUGUCAAGG
Strand = ACCAUGCAGGUGGGCAUCUUUGGGAAGUGGGGCAAGGGGGGGAUAGGGAGGGGGGUAACGCUUUGGGAACAGGUGGUCCCAGGUCGUUUC; result = 0.357
Strand = CUCAAGUCCUGUGCUACACAUCGUAUGUACCGAAUCGGGGUGGGGUGGGUGGGGAAAGUAUUAUGUUACGCCGUUCGGAUCUGCACUUCC; result = 0.724
Strand = UUAAAACAUGGCAACUUGUAAUUGUUUUCUUUCUUAGGAACAUCAUUCAUGGCAGUGAUUCAGUAAAAAGUGCUGAAAAAGAAAUCAGCC; result = 0.528
Strand = ACCAUGCAGGUGGGCAUCUUUGGGAAGUGGGGCAAGGGAAAGAUAGGGAGGGGGGUAACACUUUGGGAACAGGUGGUCCCAGGUCGUUUC; result = 0.534
Strand = AGUGACCAUUUUAGUUAAAUUUUGUUCCUCUUCCCCCUUUUCACUUUCCUGGAAGAUCGAUGUCCCGAUCAGGAAGGUAGAGAGUUUUCC; result = -0.0609
Strand = UGGGAGGUGGAUCUUGUUUAUUUUUUUAGCUCAUUUCCAGGGGUGGGAAUUUUUUUUUAAUAUGUGUCAUGAAUAAAGUUGUUUUUGAAA; result = -0.0428
Strand = UUGAGAAAAGCACCCAUAAUUUGCUACUUGAGGAUUUUAUUCCCUGGAUUCUCUGGAUGCUCAUUGCAUGAAAAGUGGAAAAGUUUAGAU; result = -0.439
Strand = AGUCCUGUGCUACACAUCGUAUGUACCGAAUCGGAAAAAGGGAAAAAGGGAAAAAGGAAAGUAUUAUGUUACGCCGUUCGGAUCUGCACU; result = -0.683
Strand = UUUUACAACCCCAAUUUAAAGAAAGUUGUAGAGGCCCACAAGAUCGUUCUCUGCGCUGUAAGCCAUGUUUUCAUGCUGCUUUUCAAUGUG; result = -1.02
Strand = ACCAUGCAGGUGGGCAUCUUUGGGAAGUGGGGCAAGGGGGGGAUAGGGAGGGGGGUAACACUUUGGGAACAGGUGGUCCCAAAACGUUUC; result = 0.741
Strand = CUCAAGUCCUGUGCUACACAUCGUAUGUACCGAAUCGGGGUUGGUUGGGGUUGGAAAGUAUUAUGUUACGCCGUUCGGAUCUGCACUUCC; result = 0.277
Strand = UGGUCCUGGUGGCAUGCGGGGAGGAAGAGGUGGCCUCAUGGAUCGUGGUGGUCCCGGUGGAAUGUUCAGAGGUGGCCGUGGUGGAGACAG; result = 0.138
Strand = CCUGUGCUACACAUCGUAUGUACCGAAUCGGGAAAAAGGGUUUUUUUGGGAAAAAAAGGGAAAGUAUUAUGUUACGCCGUUCGGAUCUGC; result = -0.992
Strand = UGGGAGGUGGAUUUUCUUUAUUUUUUUAGCUCAUUUCCAGGGGUGGGAAUUUUUUUUUAAUAUGUGUCAUGAAUAAAGUUGUUUUUGAAA; result = 0.241

Excerpt of the above (series 2):
Strand = AAATGGGCAGAATGCCACATGTTAGCAATGCAACGA; result = 108 a.u.
Strand = AAATTACTAAGTTGTATGGTGGGTGACGCCGTATGA; result = 63.7 a.u.
Strand = CTTCTGTAAATTTGTTTCGTGGGTGGACGCGCCCCG; result = 79.6 a.u.
Strand = AATCGCTATCACTTACATGTGATATCATTTCTGTAC; result = 653 a.u.
